Experimental data of several laboratories.
Lines come from different studies, so protocols differ. Numbers after ± are the reported error.

SMILES	tested on	test	test system	conditions	endpoint	result
N=C(N)NCCC[C@@H]1NC(=O)[C@H](CCCCNC(=O)CC[C@H](NC(=O)CCOCCOCCOCCOCCNC(=O)CC[C@H](NC(=O)CN2CCN(CC(=O)O)CCN(CC(=O)O)CCN(CC(=O)O)CC2)C(=O)NCCOCCOCCOCCOCCC(=O)N[C@@H](CCC(=O)NCCCC[C@@H]2NC(=O)[C@@H](Cc3ccccc3)NC(=O)[C@H](CC(=O)O)NC(=O)CNC(=O)[C@H](CCCNC(=N)N)NC2=O)C(=O)NCCCC[C@@H]2NC(=O)[C@@H](Cc3ccccc3)NC(=O)[C@H](CC(=O)O)NC(=O)CNC(=O)[C@H](CCCNC(=N)N)NC2=O)C(=O)NCCCC[C@@H]2NC(=O)[C@@H](Cc3ccccc3)NC(=O)[C@H](CC(=O)O)NC(=O)CNC(=O)[C@H](CCCNC(=N)N)NC2=O)NC(=O)[C@@H](Cc2ccccc2)NC(=O)[C@H](CC(=O)O)NC(=O)CNC1=O [indium-111 labelled]			female athymic nude mice, lungs	intravenous, 3 µCi, 1 h, U-87 MG glioma xenograft	tissue uptake	2.47 ± 0.66 %ID/g
N=C(N)NCCC[C@@H]1NC(=O)[C@H](CC(=O)NC23CNCCNCC(N)(CNCCNC2)CNCCNC3)NC(=O)[C@@H](Cc2ccccc2)NC(=O)[C@H](CC(=O)O)NC(=O)CNC1=O [copper-64 labelled]			Nu/Nu mouse, male, tumour-bearing, heart	intravenous, 10 µCi, 24 h	tissue uptake	0.26 ± 0.03 %ID/g
N=C(N)NCCC[C@@H]1NC(=O)[C@H](CCCCNC(=O)CCOCCOCCOCCOCCNC(=O)CN2CCN(CC(=O)O)CCN(CC(=O)O)CCN(CC(=O)O)CC2)NC(=O)[C@@H](Cc2ccccc2)NC(=O)[C@H](CC(=O)O)NC(=O)CNC1=O [indium-111 labelled]			female athymic nude mice, kidney	intravenous, 3 µCi, 1 h, U-87 MG glioma xenograft	tissue uptake	3.93 ± 0.09 %ID/g
NCCCC[C@H](NC(=O)[C@@H](N)CCCCN)C(=O)NCC(=O)NCC(=O)NCCCCCCCCNC(=O)c1ccc(-c2ccccn2)cc1	Jurkat			25 µM, 1 h, 37 °C	cellular uptake of iridium	6.26 ± 0.31 fmol/cell
CCN(Cc1ccccc1)C(=O)CCc1nc(CN2CCN(C(=O)Cc3ccc(OC)c(OC)c3)CC2)no1	Potassium voltage-gated channel subfamily KQT member 2 (KCNQ2, Homo sapiens, UniProt O43526)	whole-cell patch clamp	CHO stable	300 nM	V1/2 of activation	-39.9 ± 22 mV
NCCCC[C@H](NC(=O)CNC(=O)CNC(=O)[C@H](CCCCN)NC(=O)CNC(=O)CNC(=O)CNC(=O)[C@H](CCCCN)NC(=O)CNC(=O)CNC(=O)[C@H](CCCCN)NC(=O)CNC(=O)CNC(=O)CNC(=O)[C@H](CCCCN)NC(=O)CNC(=O)CNC(=O)[C@H](CCCCN)NC(=O)CNC(=O)CNC(=O)CNC(=O)[C@H](CCCCN)NC(=O)CNC(=O)CNC(=O)[C@H](CCCCN)NC(=O)[C@H](CO)NC(=O)[C@H](Cc1ccc(O)cc1)NC(=O)CNC(=O)CNC(=O)CN)C(=O)NCC(=O)O		binding, SPR two-state model	rVλ6Wil fibrils		Kd	0.034 µM
CCCC[C@H](NC(=O)CNC(=O)CNC(=O)c1ccc(NN)nc1)C(=O)N[C@H]1CC(=O)NCCCC[C@@H](C(N)=O)NC(=O)[C@H](Cc2c[nH]c3ccccc23)NC(=O)[C@H](CCCNC(=N)N)NC(=O)[C@@H](Cc2ccccc2)NC(=O)[C@H](Cc2c[nH]cn2)NC1=O [technetium-99m labelled]			C57 mouse, B16/F1 melanoma-bearing, pancreas	intravenous, 4 h	tissue uptake	0.07 ± 0.03 %ID/g
CSCC[C@H](NC(=O)[C@H](CC(C)C)NC(=O)[C@H](Cc1c[nH]cn1)NC(=O)CNC(=O)[C@@H](NC(=O)[C@H](C)NC(=O)[C@H](Cc1c[nH]c2ccccc12)NC(=O)[C@H](CCC(N)=O)NC(=O)CCCCNC(=O)CSCCSCCP(CO)CO)C(C)C)C(N)=O [technetium-99m labelled]			female CF-1 mouse, whole blood	intravenous, 4 h, blood volume as 6.5% body weight	tissue uptake	0.43 %ID
CSCC[C@H](NC(=O)[C@H](CC(C)C)NC(=O)[C@H](Cc1c[nH]cn1)NC(=O)CNC(=O)[C@@H](NC(=O)[C@H](C)NC(=O)[C@H](Cc1c[nH]c2ccccc12)NC(=O)[C@H](CCC(N)=O)NC(=O)CNC(=O)[C@H](CO)NC(=O)CNC(=O)CCCCCCCNC(=O)CCC(=O)Nc1ccc(CNC23CNCCNCC(N)(CNCCNC2)CNCCNC3)cc1)C(C)C)C(N)=O [copper-64 labelled]			female SCID mice, PC-3 xenograft, lung	intravenous, 0.6 MBq, 24 h	tissue uptake	0.216 ± 0.014 %ID/g
CC(=O)NC(Cc1ccc(Br)c(Cl)c1)C(=O)N[C@@H](C)C(=O)N1CCC[C@H]1C(=O)N1CCC[C@H]1C(=O)N[C@@H](CCC(=O)O)C(=O)N[C@@H](Cc1c[nH]cn1)C(=O)N[C@@H](CO)C(=O)N[C@H](C(=O)N[C@@H](C)C(N)=O)[C@@H](C)OP(=O)(O)O (stereo partly drawn)	Serine/threonine-protein kinase Chk2 (CHEK2, Homo sapiens, UniProt O96017)	enzyme activity, inhibitor		10 µM	inhibition	0.07%
N=C(N)NCCC[C@@H]1NC(=O)[C@H](CCCCNC(=O)CNC(=O)CNC(=O)CNC(=O)CC[C@H](NC(=O)CCOCCOCCOCCOCCNC(=O)CC[C@H](NC(=O)CN2CCN(CC(=O)O)CCN(CC(=O)O)CCN(CC(=O)O)CC2)C(=O)NCCOCCOCCOCCOCCC(=O)N[C@@H](CCC(=O)NCC(=O)NCC(=O)NCC(=O)NCCCC[C@@H]2NC(=O)[C@@H](Cc3ccccc3)NC(=O)[C@H](CC(=O)O)NC(=O)CNC(=O)[C@H](CCCNC(=N)N)NC2=O)C(=O)NCC(=O)NCC(=O)NCC(=O)NCCCC[C@@H]2NC(=O)[C@@H](Cc3ccccc3)NC(=O)[C@H](CC(=O)O)NC(=O)CNC(=O)[C@H](CCCNC(=N)N)NC2=O)C(=O)NCC(=O)NCC(=O)NCC(=O)NCCCC[C@@H]2NC(=O)[C@@H](Cc3ccccc3)NC(=O)[C@H](CC(=O)O)NC(=O)CNC(=O)[C@H](CCCNC(=N)N)NC2=O)NC(=O)[C@@H](Cc2ccccc2)NC(=O)[C@H](CC(=O)O)NC(=O)CNC1=O [indium-111 labelled]			female athymic nude mice, kidney	intravenous, 3 µCi, 1 h, U-87 MG glioma xenograft	tissue uptake	5.57 ± 0.63 %ID/g
CCCCCc1cc(O)c2c(c1)OC(C)(C)C1CCC(CO)=CC21 (stereo not drawn)	Cytochrome P450 2B6 (CYP2B6, Homo sapiens, UniProt P20813)	enzyme activity, inhibitor	human, liver microsomes	pH 7.4	IC50	8.2 µM
CCCC[C@H](NC(=O)CCCCCCCNC(=O)c1ccc(NN)nc1)C(=O)N[C@H]1CC(=O)NCCCC[C@@H](C(N)=O)NC(=O)[C@H](Cc2c[nH]c3ccccc23)NC(=O)[C@H](CCCNC(=N)N)NC(=O)[C@@H](Cc2ccccc2)NC(=O)[C@H](Cc2c[nH]cn2)NC1=O [technetium-99m labelled]			C57 mouse, B16/F1 melanoma, lung	2 h, with: L-lysine 12 mg co-injected	tissue uptake	0.59 ± 0.06 %ID/g
CSCC[C@H](NC(=O)[C@H](CC(C)C)NC(=O)[C@H](Cc1c[nH]cn1)NC(=O)CNC(=O)[C@@H](NC(=O)[C@H](C)NC(=O)[C@H](Cc1c[nH]c2ccccc12)NC(=O)[C@H](CCC(N)=O)NC(=O)CCCCCNC(=O)CNC(=O)CNC(=O)CNC(=O)CSC(C)=O)C(C)C)C(N)=O [technetium-99m labelled]			Swiss mouse, liver	intravenous, 18.5 MBq, 30 min	tissue uptake	2.79 ± 0.47 %ID/g
N=C(N)NCCC[C@@H]1NC(=O)[C@H](CCCCNC(=O)CNC(=O)CNC(=O)CNC(=O)CC[C@H](NC(=O)c2ccc(NN=Cc3ccccc3S(=O)(=O)O)nc2)C(=O)NCC(=O)NCC(=O)NCC(=O)NCCCC[C@@H]2NC(=O)[C@@H](Cc3ccccc3)NC(=O)[C@H](CC(=O)O)NC(=O)CNC(=O)[C@H](CCCNC(=N)N)NC2=O)NC(=O)[C@@H](Cc2ccccc2)NC(=O)[C@H](CC(=O)O)NC(=O)CNC1=O [technetium-99m labelled]			athymic nu/nu mouse, female, U-87 MG glioma xenograft, tumour	intravenous, 2 µCi, 60 min	tissue uptake	11 ± 2.34 %ID/g

Some of these lines once more:
SMILES	tested on	test	test system	conditions	endpoint	result
NCCCC[C@H](NC(=O)[C@@H](N)CCCCN)C(=O)NCC(=O)NCC(=O)NCCCCCCCCNC(=O)c1ccc(-c2ccccn2)cc1	Jurkat			25 µM, 1 h, 37 °C	cellular uptake of iridium	6.26 ± 0.31 fmol/cell
CCN(Cc1ccccc1)C(=O)CCc1nc(CN2CCN(C(=O)Cc3ccc(OC)c(OC)c3)CC2)no1	Potassium voltage-gated channel subfamily KQT member 2 (KCNQ2, Homo sapiens, UniProt O43526)	whole-cell patch clamp	CHO stable	300 nM	V1/2 of activation	-39.9 ± 22 mV
